# Published values of several laboratories.
# ± gives the spread as reported.
# Target: Beta-secretase 1 (BACE1, Homo sapiens, UniProt P56817)
Structure (SMILES),test,conditions,endpoint,result
N#Cc1ccc(Cn2cccc2C(/C=C/c2ccccc2)=N/NC(=N)N)cc1,"enzyme activity, inhibitor, FRET",,IC50,112 µM
CC(C)=CCCC(C)=CCCC(C)=CCc1c(O)cc(O)c(CC=C(C)C)c1-c1cc2ccc(O)cc2o1,"enzyme activity, inhibitor, FRET",,IC50,2.03 µM
O=C(/C=C/c1ccc(C(F)(F)F)cc1)c1ccc(N2CCNCC2)cc1,"enzyme activity, inhibitor, fluorescence",with preincubation,IC50,15.3 µM
CC(C)=CCCC1(C)C=Cc2c(ccc3cc(-c4cc(O)cc(O)c4CC=C(C)C)oc23)O1 (centres unmarked),"enzyme activity, inhibitor, FRET",,Ki,0.45 µM
CCc1ccc(/C=C/C(=O)c2ccc(N3CCNCC3)cc2)cc1,"enzyme activity, inhibitor, fluorescence",with preincubation,IC50,16.4 µM
N=C(N)N/N=C(/C=C/c1ccccc1)c1cn(Cc2ccccc2)c2ccccc12,"enzyme activity, inhibitor, FRET",,IC50,203 µM
Fc1ccc(N2CCN(Cc3nnc(-c4ccccc4)o3)CC2)cc1,"enzyme activity, inhibitor, FRET",,IC50,1.48 µM
CC(=O)c1c(O)ccc2ccc(=O)oc12,,,IC50,18.4 ± 1.04 µM
